{"data": "Results gathered from unrelated publications", "note": "A part holds a random share of what one study measured."}
{"data": "Sample 1", "cell line": "HEK-293T/ACE2", "concentration": "10 µM", "time": "16 h", "relative to": "vehicle"}
{"Structure (SMILES)": "NS(=O)(=O)c1cc2c(cc1Cl)NCNS2(=O)=O", "viability [%]": 102}
{"Structure (SMILES)": "CC(C)C(=O)Oc1ccc(CO)cc1[C@H](CCN(C(C)C)C(C)C)c1ccccc1", "viability [%]": 101}
{"Structure (SMILES)": "C[C@@H]1O[C@@H](OC[C@H]2O[C@@H](Oc3c(-c4ccc(O)c(O)c4)oc4cc(O)cc(O)c4c3=O)[C@H](O)[C@@H](O)[C@@H]2O)[C@H](O)[C@H](O)[C@H]1O", "viability [%]": 99.7}
{"data": "Sample 2", "target": "Sal-like protein 4, full length isoform B (SALL4, Homo sapiens, UniProt Q9UJQ4-2, residues 1-616)", "method": "universal PBM", "form": "double-stranded DNA, one strand shown", "medium": "in vitro", "concentration": "not given", "notes": "8-mer, flanks averaged, mean of replicates", "reading": "higher = stronger binding", "Construct (chain)": "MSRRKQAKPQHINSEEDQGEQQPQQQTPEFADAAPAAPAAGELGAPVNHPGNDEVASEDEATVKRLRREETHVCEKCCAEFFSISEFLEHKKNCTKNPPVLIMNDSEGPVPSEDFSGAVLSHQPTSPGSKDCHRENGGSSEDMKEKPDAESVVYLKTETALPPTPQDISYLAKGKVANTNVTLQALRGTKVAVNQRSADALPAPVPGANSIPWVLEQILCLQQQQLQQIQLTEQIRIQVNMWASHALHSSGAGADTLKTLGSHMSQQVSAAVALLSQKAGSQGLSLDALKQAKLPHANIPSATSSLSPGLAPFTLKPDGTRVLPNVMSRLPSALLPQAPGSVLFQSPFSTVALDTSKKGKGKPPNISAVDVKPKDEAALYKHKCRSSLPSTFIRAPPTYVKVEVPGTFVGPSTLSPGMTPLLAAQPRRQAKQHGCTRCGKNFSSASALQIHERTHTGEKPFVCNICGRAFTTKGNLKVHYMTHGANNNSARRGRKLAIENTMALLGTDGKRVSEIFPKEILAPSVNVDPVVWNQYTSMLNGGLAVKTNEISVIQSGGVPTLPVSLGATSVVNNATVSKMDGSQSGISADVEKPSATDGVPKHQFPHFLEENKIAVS"}
{"Strand": "CAAAGGCC", "E-score": -0.249}
{"Strand": "ATCCATGG", "E-score": -0.082}
{"Strand": "CTGAGTAA", "E-score": 0.147}
{"Strand": "CAGATCGA", "E-score": -0.107}
{"Strand": "AACCTAGT", "E-score": -0.0318}
{"Strand": "AATCGGGA", "E-score": -0.0293}
{"Strand": "CTTTTGAA", "E-score": 0.0957}
{"Strand": "ATTGACTC", "E-score": 0.0333}
{"data": "Sample 3", "target": "Replicase polyprotein 1ab, main protease (rep, Severe acute respiratory syndrome coronavirus 2, UniProt P0DTD1)", "observed": "enzyme activity", "action": "inhibitor", "concentration": "20 µM", "notes": "primary screen"}
{"Structure (SMILES)": "O=C(O[C@@H]1Cc2c(O)cc(O)cc2O[C@@H]1c1ccc(O)c(O)c1)c1cc(O)c(O)c(O)c1", "inhibition [%]": 58.2}
{"Structure (SMILES)": "O=C(Nc1ccc(Cl)c(Cl)c1)Nc1ccc(Cl)c(Cl)c1", "inhibition [%]": 51.6}
{"Structure (SMILES)": "CN1C(=O)C(N2CCCCC2)S/C1=C\\C(=O)O (stereo not shown)", "inhibition [%]": 76.4}
{"data": "Sample 4", "target": "Phosphate system positive regulatory protein PHO4, full length, GST-tagged (PHO4, Saccharomyces cerevisiae, UniProt P07270, residues 1-312)", "method": "competition protein-binding microarray", "form": "double-stranded DNA, one strand shown", "medium": "in vitro", "concentration": "2 µM", "notes": "whole 60-bp probe, lowest competitor level", "with": "Cbf1 competitor, 0.05 µM", "reading": "higher = stronger binding", "Construct (chain)": "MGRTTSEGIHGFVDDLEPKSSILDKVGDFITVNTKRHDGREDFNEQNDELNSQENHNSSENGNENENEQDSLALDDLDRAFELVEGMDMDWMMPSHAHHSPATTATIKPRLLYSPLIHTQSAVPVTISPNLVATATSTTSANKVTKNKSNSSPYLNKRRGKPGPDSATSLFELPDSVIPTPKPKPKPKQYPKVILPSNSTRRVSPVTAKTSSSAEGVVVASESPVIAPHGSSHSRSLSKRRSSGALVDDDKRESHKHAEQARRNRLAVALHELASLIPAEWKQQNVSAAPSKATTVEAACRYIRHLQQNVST"}
{"Strand": "TCCTCTCCAATGGACACCGTGACGGAATCAGAAATGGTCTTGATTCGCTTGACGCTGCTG", "fluorescence intensity [a.u.]": 6410}
{"Strand": "TCATGATAGACTTTGTGCGTGGACCCCAAGCCAAAGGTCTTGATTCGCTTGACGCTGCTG", "fluorescence intensity [a.u.]": 6290}
{"Strand": "GAGACGGACGAGAGTGACGTGCTTTGGGTTGAGACGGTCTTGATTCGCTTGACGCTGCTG", "fluorescence intensity [a.u.]": 5450}
{"Strand": "CTTTCCCGATCTTGCTCAGTGGGTGTAGCACATTTGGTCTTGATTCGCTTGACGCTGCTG", "fluorescence intensity [a.u.]": 4460}
{"Strand": "TGAAGAAGGGTAAATCTCGTGATGGAAATGTTCCTGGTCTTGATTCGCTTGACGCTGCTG", "fluorescence intensity [a.u.]": 6530}
{"Strand": "TGGAACAGCAATGCCACCGTGATGGTCCTTGACCAGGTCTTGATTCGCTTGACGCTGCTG", "fluorescence intensity [a.u.]": 5010}
{"Strand": "GTTACGTTCTGTGGTGGCGTGCCGACTTCCAAGTCCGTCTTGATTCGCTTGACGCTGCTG", "fluorescence intensity [a.u.]": 6950}
{"Strand": "GCCCGCCGGCGACGTCACGCGGCCGTTACGGCGCTCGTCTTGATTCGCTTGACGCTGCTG", "fluorescence intensity [a.u.]": 5380}
{"data": "Sample 5", "target": "Replicase polyprotein 1ab, polymerase (rep, Severe acute respiratory syndrome coronavirus 2, UniProt P0DTD1)", "observed": "enzyme activity", "action": "inhibitor", "concentration": "20 µM"}
{"SMILES": "C[C@@H](Oc1ccc(Cl)cc1)c1ccnc2ncnn12", "inhibition [%]": -1.41}
{"SMILES": "O=C(O)CCCN1C(=O)c2cccc3cccc(c23)C1=O", "inhibition [%]": 3.02}
{"SMILES": "CN1CCc2cccc3c2[C@H]1Cc1ccc(O)c(O)c1-3", "inhibition [%]": -1.32}
{"SMILES": "CC(C)(O)CNc1nc(Nc2ccnc(C(F)(F)F)c2)nc(-c2cccc(C(F)(F)F)n2)n1", "inhibition [%]": 3.13}
{"SMILES": "Cc1c(C(=O)Nc2ccc(N3CCC(N4CCOCC4)CC3)c(C#N)c2)cnn1-c1ccc(Cl)cc1", "inhibition [%]": -7.58}
{"SMILES": "Cc1ccc(-n2nc(C(C)(C)C)cc2NC(=O)Nc2ccc(OCCN3CCOCC3)c3ccccc23)cc1", "inhibition [%]": -2.42}
{"SMILES": "CC(C)(C)[C@]1(O)CCN2C[C@H]3c4ccccc4CCc4cccc(c43)[C@@H]2C1", "inhibition [%]": -8.35}
{"SMILES": "CC(C)C[C@H](NC(=O)CNC(=O)c1cc(Cl)ccc1Cl)B(O)O", "inhibition [%]": -5.17}
{"SMILES": "CCCCNC(=O)[C@@H]1Cc2ccccc2N1C(=O)[C@@H](N)CC", "inhibition [%]": 2.78}
{"SMILES": "CNC(=O)c1nn(C)c2c1C(C)(C)Cc1cnc(Nc3ccc(N4CCN(C)CC4)cc3)nc1-2", "inhibition [%]": -2.68}
{"SMILES": "Nc1ccn(C[C@@H](CO)OCP(=O)(O)O)c(=O)n1", "inhibition [%]": 1.24}
{"SMILES": "COc1cc2nc(N3CCN(C(=O)C(C)OC)CC3)nc(N)c2cc1OC (stereo not shown)", "inhibition [%]": 4.05}
{"SMILES": "CN(C)/C=N/c1c(I)cc(I)c(CCC(=O)O)c1I", "inhibition [%]": -0.88}
{"SMILES": "N=C(N)SCc1ccc(B(O)O)cc1", "inhibition [%]": -5.82}
{"SMILES": "CC1CNc2c(cccc2S(=O)(=O)N[C@@H](CCCNC(=N)N)C(=O)N2CC[C@@H](C)C[C@@H]2C(=O)O)C1 (stereo partly shown)", "inhibition [%]": 2.69}
{"SMILES": "Cn1nc(-c2cccc(F)c2)n(C)c1=S", "inhibition [%]": 4.65}
{"SMILES": "CC1(N)CCN(c2cnc(-c3cccc(Cl)c3Cl)c(N)n2)CC1", "inhibition [%]": -2.86}
{"SMILES": "CC(C)C[C@@H](C=O)NC(=O)[C@H](CC(C)C)NC(=O)[C@H](CC(C)C)NC(=O)OCc1ccccc1", "inhibition [%]": -1.34}
{"SMILES": "Nc1ncnc2c1ncn2[C@@H]1O[C@H](CO)[C@@H](O)[C@H]1O", "inhibition [%]": -0.34}
{"SMILES": "C[C@@H]1CN(c2c(F)c(N)c3c(=O)c(C(=O)O)cn(C4CC4)c3c2F)C[C@H](C)N1", "inhibition [%]": -1.07}
{"SMILES": "Cc1[nH]c(=O)c(C#N)cc1-c1ccncc1", "inhibition [%]": -14.2}
{"SMILES": "O=C(O)COc1ccc(C(=O)c2cccs2)c(Cl)c1Cl", "inhibition [%]": 3.03}
{"SMILES": "Cc1cc(=O)n(-c2ccccc2)[nH]1", "inhibition [%]": 1.47}
{"SMILES": "Cc1cc2nc3c(=O)[nH]c(=O)nc-3n(C)c2cc1C=O", "inhibition [%]": 24}
{"SMILES": "Cc1cc(C)c(N(Cc2ccccc2)S(=O)(=O)c2ccc(OCCNC(=O)c3cc4ccccc4o3)cc2)c(C(=O)NO)c1", "inhibition [%]": -1.43}
{"data": "Sample 6", "target": "Histone acetyltransferase KAT6A, both winged helices, GST fusion (KAT6A, Homo sapiens, UniProt Q92794, residues 1-181)", "method": "protein binding microarray", "form": "double-stranded DNA, one strand shown", "medium": "in vitro", "concentration": "not given", "notes": "8-mer, flanks averaged, mean of 2 arrays, mostly near background", "relative to": "not given", "reading": "higher = stronger binding", "Construct (chain)": "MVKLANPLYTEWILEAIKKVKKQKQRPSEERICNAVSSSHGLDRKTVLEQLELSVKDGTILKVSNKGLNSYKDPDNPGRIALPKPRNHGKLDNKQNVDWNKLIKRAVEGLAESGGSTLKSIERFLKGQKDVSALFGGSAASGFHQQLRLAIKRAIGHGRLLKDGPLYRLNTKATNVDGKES"}
{"Strand": "CACCATAG", "E-score": -0.27}
{"Strand": "ATGAATCC", "E-score": 0.00355}
{"Strand": "CAATTGAC", "E-score": -0.0721}
{"Strand": "AGTGGACA", "E-score": -0.151}
{"Strand": "ACTATAGT", "E-score": -0.0795}
{"Strand": "CTCTCTCA", "E-score": -0.251}
{"Strand": "ATTGTTAC", "E-score": -0.0411}
{"Strand": "AATATGTG", "E-score": -0.0288}
